# Measured values pooled from the literature.
# A part holds a random share of what one study measured.
# UniProt O15294, sequence (whole entry, looked up): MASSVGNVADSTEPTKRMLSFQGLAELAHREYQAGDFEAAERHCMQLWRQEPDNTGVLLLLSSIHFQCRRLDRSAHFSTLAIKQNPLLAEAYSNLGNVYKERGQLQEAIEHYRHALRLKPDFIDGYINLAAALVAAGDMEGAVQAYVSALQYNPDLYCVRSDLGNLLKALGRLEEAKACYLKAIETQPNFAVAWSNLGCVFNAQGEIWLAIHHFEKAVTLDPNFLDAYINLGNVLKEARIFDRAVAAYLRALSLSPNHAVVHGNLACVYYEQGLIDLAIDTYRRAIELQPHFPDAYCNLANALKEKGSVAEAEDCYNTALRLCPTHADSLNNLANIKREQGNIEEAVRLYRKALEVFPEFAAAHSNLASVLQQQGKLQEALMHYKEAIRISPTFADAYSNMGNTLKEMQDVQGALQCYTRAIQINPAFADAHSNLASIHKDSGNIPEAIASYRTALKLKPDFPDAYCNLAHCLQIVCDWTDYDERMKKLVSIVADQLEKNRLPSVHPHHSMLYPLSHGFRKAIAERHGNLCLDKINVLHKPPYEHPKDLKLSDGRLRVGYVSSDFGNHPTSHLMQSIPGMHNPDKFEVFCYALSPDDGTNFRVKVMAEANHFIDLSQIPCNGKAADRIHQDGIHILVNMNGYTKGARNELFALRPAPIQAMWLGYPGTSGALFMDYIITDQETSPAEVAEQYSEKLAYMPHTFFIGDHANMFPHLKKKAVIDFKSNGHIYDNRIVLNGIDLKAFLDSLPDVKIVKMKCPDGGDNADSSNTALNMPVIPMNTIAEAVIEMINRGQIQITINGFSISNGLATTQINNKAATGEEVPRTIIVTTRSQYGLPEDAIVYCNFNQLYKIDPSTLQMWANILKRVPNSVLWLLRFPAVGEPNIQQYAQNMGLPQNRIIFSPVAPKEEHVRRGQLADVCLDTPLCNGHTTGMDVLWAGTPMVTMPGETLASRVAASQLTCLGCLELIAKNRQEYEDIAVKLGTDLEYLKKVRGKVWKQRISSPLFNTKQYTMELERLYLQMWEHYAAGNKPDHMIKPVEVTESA

# Study 1 — method: protein-binding microarray; form: double-stranded DNA, one strand shown; medium: in vitro; tested at: not given; reading: higher = stronger binding
# Target: Protein C-ets-1 (ETS1, Homo sapiens, UniProt P14921, residues 1-441, Y397A, full length assumed)
# UniProt P14921, sequence (whole entry, unmodified, looked up): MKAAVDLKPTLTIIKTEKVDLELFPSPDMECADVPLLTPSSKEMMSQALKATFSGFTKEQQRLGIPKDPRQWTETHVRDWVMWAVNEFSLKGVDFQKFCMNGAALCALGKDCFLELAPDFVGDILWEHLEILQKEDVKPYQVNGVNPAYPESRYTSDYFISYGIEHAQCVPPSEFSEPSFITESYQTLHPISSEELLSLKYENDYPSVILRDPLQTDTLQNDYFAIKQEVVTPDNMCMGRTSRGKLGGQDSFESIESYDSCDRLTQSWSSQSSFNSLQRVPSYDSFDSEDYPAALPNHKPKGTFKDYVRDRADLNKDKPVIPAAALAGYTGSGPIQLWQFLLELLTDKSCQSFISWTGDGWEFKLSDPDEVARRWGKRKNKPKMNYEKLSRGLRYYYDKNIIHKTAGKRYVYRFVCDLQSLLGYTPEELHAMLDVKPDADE
# Setting: k-mer, scored over probes, only values ≥0.25
Sequence,E-score
ATTGACAG,0.271
TCGGAACA,0.296
GACCGCAA,0.257
ATCCGGAT,0.362
TATTGCAA,0.251
CGGCAATA,0.315
CGGCAATC,0.287
ACATCCTG,0.261

# Study 2 — method: RNA Bind-n-Seq; form: RNA; medium: in vitro; tested at: 365 nM; relative to: no-protein control; reading: higher = stronger binding
# Target: RNA binding protein fox-1 homolog 2, RRM domain, GST-SBP tag (RBFOX2, Homo sapiens, UniProt O43251-10, residues 100-194)
# Setting: natural RNA segment, single round, ends assumed
# Shared flanks, not repeated: GGGAGUUCUACAGUCCGACGAUC … UGGAAUUCUCGGGUGCCAA
# Target sequence (chain): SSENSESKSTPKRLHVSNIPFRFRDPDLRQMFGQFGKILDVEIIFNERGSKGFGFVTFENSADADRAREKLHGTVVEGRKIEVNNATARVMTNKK
Sequence,RBNS enrichment (R)
GAAUUUAUAUGUUUUUAGCUUUAGUAUUUAACCUUUUAUAACAAAUAAACCAUUUUUUAAAAAAACAGUUCAAUGAAGUGUUCUGUAGUUAUUUCAUCUGGAUGUUGAUU,1.42
AGAUGCUGAGGUACUGCCUCGCCUCAUGGGUGUGUCAGGUUUCUACACCUGUGUGCUUUUCUAGAAAAAGCUGCUAAUGGCUGCAACACUAAUCAUGAACACGUUUUUGC,0.312
UCCCAGUACCCCCAAGAACGUCUGAGCCUUCAAUGUUGAAUUUUUUCUUUAUUAAAAUUACUUUUAUCUUAUAAAAUCAACUAAUCAAAAAUGAUAUAGACGACAGCACU,0.621
AACCGAUCCUGGGGCUUUUCCCGCCCGUAGGCGCCUGAGGCAGGCAGGGGCAAGUGUACAAUGGGGCCUAGUCCCCAGCAGGCGGCUGGGAGGCCGCCACUGAGCAUCUC,0.284
UUUUUUAGGAAAACAAAAAUGAAAAACUACUCCAUUUGAGGAUUGUAAUUCCCACCCCUCUUGCUUCUUCCCCACCUCACCAUCUCCCAGACCCUCUUCCCUUUGCCCUU,2.17
CCCGUAUUUGGAAAGUGUGGAGUUUGUGUUGGAAAAGCUGCCUGGAGAGAAGAGUUGUGUCCUUUACCAUAGCAACAGGAUUCAUUGGGGGAUCAAAAUCAUAAUUUUAA,1.16
AGCAUAGGGUCACUUUGCCAUUAUGCAAAUGGAGAUAAAAGCAAUUCUGACUGUCCAGGAGCUAAUCUGACCGUUCUAUUGUGUGGAUGACCACAUAAGAAGGCAAUUUU,0.312
UUGGGGUUUUUCUUUCUUUCUUUUUUGAUUUUGCACUGGACGGUGACGUCAGCCAUGUACAGGAUCCACAGGGGUGGUGUCAAAUGCUAUUGAAAUUGUGUUGAAUUGUA,0.468

# Study 3 — method: RNA Bind-n-Seq; form: RNA; medium: in vitro; tested at: not given; setting: RNA with constant flanks, ends assumed; relative to: input RNA pool; reading: higher = stronger binding
# Target: RING finger protein unkempt homolog, zinc fingers 1-6, GST-SBP tag (UNK, Homo sapiens, UniProt Q9C0B0, residues 30-357)
# UniProt Q9C0B0, sequence (30-357, looked up): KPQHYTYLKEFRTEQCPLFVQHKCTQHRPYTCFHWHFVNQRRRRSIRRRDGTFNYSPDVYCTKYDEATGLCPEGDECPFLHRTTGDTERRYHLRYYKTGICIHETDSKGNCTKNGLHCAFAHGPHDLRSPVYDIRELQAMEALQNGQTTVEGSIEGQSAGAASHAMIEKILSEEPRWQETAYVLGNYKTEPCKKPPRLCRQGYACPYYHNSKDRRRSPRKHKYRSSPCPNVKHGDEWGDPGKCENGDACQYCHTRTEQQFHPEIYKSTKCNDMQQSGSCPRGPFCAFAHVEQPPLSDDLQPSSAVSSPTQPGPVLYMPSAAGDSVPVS
# Shared flanks, not repeated: GGGAGUUCUACAGUCCGACGAUC … CAACAGAGGAUUGAGCAUCA
Sequence,bound/input enrichment [ratio]
CUGGCAAUCCAGUGCCGUGCUGACCAGUCUUUCACUUCUCCACCCCCGAGAGAUUUCUUAUCCGAUAUUGCACGACAAAGAAAUCAAACCCCUUUGCCACUGAUCAAGCCAUAUUCAGGU,0.161
UAUUUAUAUUUAUUGACUCUUGAGUUGUUUUUGUAUAUUGGUUUUAUGAUGACGUACAAGCCGUUCUGUAUUUGAAAGUGCCUUUGCAGCUCAGAACCACAGCAACGAUCACAAAUGACU,0.34
ACAGCCCCGUGGGUGUGUGGGAGGCCGGGCGCUCUGGGGUCUGUCUGUCAGUGCAAUCGUUCCGUGUUUUUUCAGUGGGGCGGGGCGGGAAGCGGGUGGGACCGGGCAGCCAGUUCUCAA,0.368
AAACAUGAAUGUCAAGCAAAUGGACCAGAAGAUCUCAAUCGGGCUUGUAUUGCUGAAAAGUCCGGUGGAUCCUUAAUUGUAGCCUUUGAAGGAUGCCCUGUGUAGAUUAUUCAGUGCCAC,0.216
GUGGAGAGAGAACUUGUUGAGAAAGAGUUAUUAGAAAAAGUUAAACAUCUUGAGAAUCAAACCGCCAAAACUCCUGCCUUUGAGUCAGCCAGAGAAGAUUCUUCAAGCUUAGUUGCGGAA,3.79
CAUUUCUAUAUUUGUACAUUUUCAUUUAUGAGUUCUAUGAUGUGGUCUCUGAAAGACCAAACCGAUUUCUAUUUCUACUUCUUAUUUUUAAGUUCAUUGUGUCUACAAAUUGUUAAUAUU,1.23
AUUAAGCAGAGGACUAAGUUGGAGCUUAAAGCCAAGGAUUUACAAGAUGAACUAGCAGGCAACCGUGAACAAAGGAAACGUUUAUUAAAAGAGAGGCAGAAGCUGCUUGAAAAAAUAGAA,0.612
UCAUUGUCCUUUCUCCAGUUUUUGUUCCAGAAUAAAAGGAAAUAUUUUAAAAGCCACGUUACCGGACCUAAAAAUCUGAUUUCCGUACCAGUUAAAUUGGUAGCAUCACUGUUACUGAUA,0.185

# Single results of other studies
Sequence,target,test,test system,conditions,how to read,endpoint,result
HAMHSHDSDHMTPYR,"UDP-N-acetylglucosamine--peptide N-acetylglucosaminyltransferase 110 kDa subunit (OGT, Homo sapiens, UniProt O15294)","binding, phage display NGS",peptide,panning round 2,relative to: input library,minimum log2 enrichment ratio,2.55
